Assay results pooled from the literature.
pIC50: −log10 of the molar value.
CASP3: Caspase-3 (CASP3, Homo sapiens, UniProt P42574)
Sequence of UniProt P42574 (whole entry, looked up): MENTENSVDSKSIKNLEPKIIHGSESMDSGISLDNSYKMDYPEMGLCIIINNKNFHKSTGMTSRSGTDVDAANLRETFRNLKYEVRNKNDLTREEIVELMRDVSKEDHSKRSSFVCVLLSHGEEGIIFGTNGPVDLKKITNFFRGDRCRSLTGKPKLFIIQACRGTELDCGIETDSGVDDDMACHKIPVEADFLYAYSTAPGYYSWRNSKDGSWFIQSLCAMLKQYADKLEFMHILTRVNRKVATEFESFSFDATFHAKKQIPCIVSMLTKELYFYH
4'-phosphopantetheinyl transferase PptT: 4'-phosphopantetheinyl transferase PptT (Mycobacterium tuberculosis, UniProt O33336)
Sequence of UniProt O33336 (whole entry, looked up): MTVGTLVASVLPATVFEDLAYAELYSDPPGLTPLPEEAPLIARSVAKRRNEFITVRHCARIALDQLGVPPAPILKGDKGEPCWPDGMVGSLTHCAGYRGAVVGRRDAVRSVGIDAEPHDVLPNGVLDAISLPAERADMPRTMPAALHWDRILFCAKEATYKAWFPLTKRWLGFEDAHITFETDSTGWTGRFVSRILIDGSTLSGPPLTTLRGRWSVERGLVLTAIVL
HLA class I histocompatibility antigen, A alpha chain: HLA class I histocompatibility antigen, A alpha chain (Homo sapiens, UniProt P04439)
NEU1: Sialidase-1 (NEU1, Homo sapiens, UniProt Q99519)
Proteasome component C5/PSMB5 chymotrypsin-like site: Proteasome component C5/PSMB5, chymotrypsin-like site (Homo sapiens, UniProt P20618+P28074)
Sequence of UniProt P28074 (whole entry, looked up): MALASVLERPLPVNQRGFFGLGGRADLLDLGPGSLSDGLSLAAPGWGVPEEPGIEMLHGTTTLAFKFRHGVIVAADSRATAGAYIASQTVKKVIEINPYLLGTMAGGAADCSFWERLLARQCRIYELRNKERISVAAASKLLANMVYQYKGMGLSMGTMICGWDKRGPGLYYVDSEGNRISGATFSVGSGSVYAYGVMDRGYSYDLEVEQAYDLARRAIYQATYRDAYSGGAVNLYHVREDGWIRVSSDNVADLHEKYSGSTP
Sequence of UniProt P20618 (whole entry, looked up): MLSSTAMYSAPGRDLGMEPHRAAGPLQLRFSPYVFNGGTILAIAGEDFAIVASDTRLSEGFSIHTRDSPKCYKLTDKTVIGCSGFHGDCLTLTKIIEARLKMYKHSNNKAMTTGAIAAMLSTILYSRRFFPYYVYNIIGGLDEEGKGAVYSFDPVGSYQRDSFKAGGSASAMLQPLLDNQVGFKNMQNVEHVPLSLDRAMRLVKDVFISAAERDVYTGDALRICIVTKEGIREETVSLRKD
Sequence of UniProt P27487 (whole entry, looked up): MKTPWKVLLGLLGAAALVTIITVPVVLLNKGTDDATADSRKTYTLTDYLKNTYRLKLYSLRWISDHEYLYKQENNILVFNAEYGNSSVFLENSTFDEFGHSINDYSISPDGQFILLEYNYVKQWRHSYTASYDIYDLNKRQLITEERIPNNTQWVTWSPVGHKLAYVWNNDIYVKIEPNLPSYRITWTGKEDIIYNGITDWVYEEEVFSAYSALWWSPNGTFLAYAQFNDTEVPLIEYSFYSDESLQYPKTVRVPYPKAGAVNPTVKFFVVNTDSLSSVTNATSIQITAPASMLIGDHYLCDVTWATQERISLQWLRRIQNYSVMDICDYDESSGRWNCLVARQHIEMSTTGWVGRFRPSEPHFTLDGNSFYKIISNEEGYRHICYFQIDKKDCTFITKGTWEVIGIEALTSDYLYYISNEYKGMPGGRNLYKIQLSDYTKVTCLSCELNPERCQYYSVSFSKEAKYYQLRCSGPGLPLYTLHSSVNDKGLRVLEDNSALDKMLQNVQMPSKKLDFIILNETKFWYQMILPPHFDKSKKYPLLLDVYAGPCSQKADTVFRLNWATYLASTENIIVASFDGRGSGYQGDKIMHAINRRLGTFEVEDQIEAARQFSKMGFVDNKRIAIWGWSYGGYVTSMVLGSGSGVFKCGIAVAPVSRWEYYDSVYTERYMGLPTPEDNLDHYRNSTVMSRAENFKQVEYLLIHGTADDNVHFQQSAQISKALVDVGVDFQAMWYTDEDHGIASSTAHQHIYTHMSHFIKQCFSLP
Sequence of UniProt P53634 (whole entry, looked up): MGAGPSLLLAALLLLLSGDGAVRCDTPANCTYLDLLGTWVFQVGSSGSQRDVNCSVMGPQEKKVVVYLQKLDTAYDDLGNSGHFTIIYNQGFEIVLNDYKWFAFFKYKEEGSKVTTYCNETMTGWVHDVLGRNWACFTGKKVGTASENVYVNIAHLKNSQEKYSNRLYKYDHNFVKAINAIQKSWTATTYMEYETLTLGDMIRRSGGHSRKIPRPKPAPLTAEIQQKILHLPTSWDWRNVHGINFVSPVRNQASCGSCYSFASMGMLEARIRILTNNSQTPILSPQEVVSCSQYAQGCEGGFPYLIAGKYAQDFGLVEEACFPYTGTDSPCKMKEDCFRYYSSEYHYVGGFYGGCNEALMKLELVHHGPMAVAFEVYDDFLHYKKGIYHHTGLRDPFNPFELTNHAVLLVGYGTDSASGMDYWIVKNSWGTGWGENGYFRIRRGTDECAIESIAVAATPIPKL
Sequence of UniProt P08311 (whole entry, looked up): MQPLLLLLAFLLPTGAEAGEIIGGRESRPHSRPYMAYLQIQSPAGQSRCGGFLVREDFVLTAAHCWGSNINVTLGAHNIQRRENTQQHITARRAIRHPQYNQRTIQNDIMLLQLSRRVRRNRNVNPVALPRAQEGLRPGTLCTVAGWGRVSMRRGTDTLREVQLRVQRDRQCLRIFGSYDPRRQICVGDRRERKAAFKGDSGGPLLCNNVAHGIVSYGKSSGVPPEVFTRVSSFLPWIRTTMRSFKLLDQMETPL
Sequence of UniProt P62344 (whole entry, looked up): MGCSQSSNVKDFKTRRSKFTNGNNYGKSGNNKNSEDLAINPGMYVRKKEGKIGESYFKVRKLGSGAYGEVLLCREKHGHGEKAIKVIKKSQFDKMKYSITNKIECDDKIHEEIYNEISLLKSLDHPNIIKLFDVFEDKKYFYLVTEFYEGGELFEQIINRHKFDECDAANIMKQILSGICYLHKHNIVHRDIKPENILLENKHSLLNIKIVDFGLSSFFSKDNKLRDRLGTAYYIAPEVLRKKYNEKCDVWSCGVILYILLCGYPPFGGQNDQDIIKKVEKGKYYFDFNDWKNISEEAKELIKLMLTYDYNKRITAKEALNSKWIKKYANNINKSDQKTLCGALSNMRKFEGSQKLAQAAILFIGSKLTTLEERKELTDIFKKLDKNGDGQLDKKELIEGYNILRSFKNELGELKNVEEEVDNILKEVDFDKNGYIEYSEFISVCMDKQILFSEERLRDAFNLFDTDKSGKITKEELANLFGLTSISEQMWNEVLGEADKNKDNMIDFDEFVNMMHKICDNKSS
Sequence of UniProt P52895 (whole entry, looked up): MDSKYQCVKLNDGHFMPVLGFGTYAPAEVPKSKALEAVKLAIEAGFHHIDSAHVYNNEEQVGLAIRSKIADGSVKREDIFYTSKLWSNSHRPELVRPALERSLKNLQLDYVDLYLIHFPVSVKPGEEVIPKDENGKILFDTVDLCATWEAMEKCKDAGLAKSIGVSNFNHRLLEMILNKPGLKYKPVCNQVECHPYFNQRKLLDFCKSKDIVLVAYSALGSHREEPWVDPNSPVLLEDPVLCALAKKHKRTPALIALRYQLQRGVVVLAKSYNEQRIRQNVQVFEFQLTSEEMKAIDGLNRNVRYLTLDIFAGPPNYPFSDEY
Sequence of UniProt P23458 (whole entry, looked up): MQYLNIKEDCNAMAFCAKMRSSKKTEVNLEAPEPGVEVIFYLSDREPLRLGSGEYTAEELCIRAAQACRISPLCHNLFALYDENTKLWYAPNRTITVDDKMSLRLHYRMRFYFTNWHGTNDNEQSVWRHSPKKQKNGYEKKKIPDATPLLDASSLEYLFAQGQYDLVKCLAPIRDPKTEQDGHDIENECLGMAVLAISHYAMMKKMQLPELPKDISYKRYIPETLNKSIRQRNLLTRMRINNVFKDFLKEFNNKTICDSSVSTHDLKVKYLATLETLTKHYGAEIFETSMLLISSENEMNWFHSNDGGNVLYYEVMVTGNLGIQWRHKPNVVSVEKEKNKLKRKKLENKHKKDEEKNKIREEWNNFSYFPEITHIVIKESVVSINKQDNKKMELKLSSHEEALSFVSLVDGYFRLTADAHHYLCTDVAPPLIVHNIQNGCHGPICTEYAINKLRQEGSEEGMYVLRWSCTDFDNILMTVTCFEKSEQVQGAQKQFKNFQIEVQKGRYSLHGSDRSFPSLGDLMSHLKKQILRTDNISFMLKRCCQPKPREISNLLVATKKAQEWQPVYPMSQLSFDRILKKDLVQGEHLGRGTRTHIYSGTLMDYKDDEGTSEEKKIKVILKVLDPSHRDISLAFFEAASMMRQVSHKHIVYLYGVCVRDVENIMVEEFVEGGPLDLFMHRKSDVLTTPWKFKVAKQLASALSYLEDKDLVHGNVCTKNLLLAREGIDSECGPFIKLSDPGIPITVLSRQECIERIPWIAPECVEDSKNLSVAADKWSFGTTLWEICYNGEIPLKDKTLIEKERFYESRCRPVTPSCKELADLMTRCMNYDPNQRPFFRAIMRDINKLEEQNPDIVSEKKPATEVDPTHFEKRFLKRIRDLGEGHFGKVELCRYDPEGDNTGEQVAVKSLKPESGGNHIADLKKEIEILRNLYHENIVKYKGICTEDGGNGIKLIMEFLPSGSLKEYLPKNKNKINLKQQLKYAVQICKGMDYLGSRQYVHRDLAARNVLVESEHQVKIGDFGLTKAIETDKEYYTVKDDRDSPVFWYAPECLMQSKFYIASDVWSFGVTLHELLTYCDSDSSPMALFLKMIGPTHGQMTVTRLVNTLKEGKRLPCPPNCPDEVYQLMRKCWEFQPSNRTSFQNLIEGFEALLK

CCC(C(=O)Nc1cc(NC2COC2)ccc1C)n1cc(Br)cc2nc(SCc3ccc(F)cc3)nc1-2 (stereo not shown)
pIC50 (CASP3; enzyme activity, inhibitor): < 4.00

CC(=O)OCc1cc2[nH]c(=O)n(Cc3cccnc3)c(=O)c2cc1Cl
pIC50 (4'-phosphopantetheinyl transferase PptT; enzyme activity, inhibitor, FP): < 4.00

CSCC[C@H](NC(=O)[C@H](C)N)C(=O)N[C@@H](Cc1ccc(O)cc1)C(=O)NCC(=O)N[C@@H](CCCNC(=N)N)C(=O)N[C@@H](CO)C(=O)N[C@@H](CC(C)C)C(=O)N[C@@H](CCC(N)=O)C(=O)N[C@@H](Cc1ccccc1)C(=O)O
pIC50 (HLA class I histocompatibility antigen, A alpha chain; cell-free assay): 7.51

CN(C)C(=O)COC(=O)Cc1ccc(OC(=O)c2ccc(NC(=N)N)cc2)cc1
pIC50 (Serine protease 1 (PRSS1, Homo sapiens, UniProt P07477); enzyme activity, inhibitor): 7.14

O=C(O)C(F)(F)C(F)(F)C(F)(F)C(F)(F)C(F)(F)C(F)(F)C(F)(F)F
pIC50 (AKR1C2 (Homo sapiens, UniProt P52895); enzyme activity, inhibitor, fluorescence): 6.69

[2H]c1c([2H])c([C@]2([2H])CCCN2C(=O)C(C)(C)Oc2ccc3cn[nH]c3c2)c([2H])c([2H])c1C([2H])([2H])[2H]
remaining binding (SGK3 (Homo sapiens, UniProt Q96BR1); binding, competition with immobilised ligand; 1 µM): 100%

CCC(C(=O)Nc1cc(NC2CNC2)ccc1C)n1cccc2nc(SCc3ccc(F)cc3)nc1-2 (stereo not shown)
pIC50 (CASP3; enzyme activity, inhibitor): < 4.00

CSCC[C@H](NC(=O)[C@H](CO)NC(=O)[C@H](Cc1c[nH]c2ccccc12)NC(=O)[C@@H]1CCCN1C(=O)[C@H](CCCCN)NC(=O)[C@H](CCC(N)=O)NC(=O)[C@H](Cc1ccccc1)NC(=O)[C@H](CCSC)NC(=O)[C@@H](N)CCCNC(=N)N)C(=O)O
pIC50 (HLA class I histocompatibility antigen, A alpha chain; cell-free assay): 5.84

COc1ncccc1-c1cnn2ccc(N3CCN(C(=O)OC(C)C)CC3)nc12
remaining binding (ACVR2A (Homo sapiens, UniProt P27037); binding, competition with immobilised ligand; 1 µM): 87%

CC[C@H](C)[C@H](NC(=O)[C@@H]1CCCN1C(=O)[C@H](CC(=O)O)NC(=O)[C@H](CCSC)NC(=O)[C@@H](N)Cc1ccc(O)cc1)C(=O)N1CCC[C@H]1C(=O)N[C@@H](Cc1c[nH]cn1)C(=O)N[C@@H](CCC(N)=O)C(=O)N[C@@H](Cc1ccc(O)cc1)C(=O)O
pIC50 (HLA class I histocompatibility antigen, A alpha chain; cell-free assay): 6.44

Nc1ncc(-c2nc(N3CCOCC3)nc(N3CCOCC3)n2)c(C(F)F)n1
remaining binding (CDPK1 (Plasmodium falciparum, UniProt P62344); binding, competition with immobilised ligand; 10 µM): 57%

CCC(C(=O)Nc1cc(NC2CCOCC2)ccc1C)n1cc(Br)cc2nc(SCc3ccc(F)cc3)nc1-2 (stereo not shown)
pIC50 (Prothrombin (F2, Homo sapiens, UniProt P00734); enzyme activity, inhibitor): < 4.00

CCCCCC(=O)N[C@H]1[C@H]([C@H](O)[C@H](O)CO)OC(C(=O)O)=C[C@@H]1O
pIC50 (NEU1; enzyme activity, inhibitor): 6.05

CN1C(=O)[C@@]23C[C@]4([C@]56C[C@@]78SS[C@@](CO)(C(=O)N7[C@H]5Nc5ccccc56)N(C)C8=O)c5ccccc5N[C@@H]4N2C(=O)[C@]1(CO)SS3
pIC50 (NSD3 (Homo sapiens, UniProt Q9BZ95); enzyme activity, inhibitor): 7.33

CCCCCc1cn([C@H]2[C@H]([C@H](O)[C@H](O)CO)OC(C(=O)O)=C[C@@H]2O)nn1
pIC50 (NEU1; enzyme activity, inhibitor): 6.05

CC[C@H](C)[C@H](NC(=O)[C@@H](N)CCCNC(=N)N)C(=O)N[C@@H](Cc1ccccc1)C(=O)NCC(=O)N[C@@H](Cc1c[nH]cn1)C(=O)N1CCC[C@H]1C(=O)N[C@@H](Cc1c[nH]cn1)C(=O)N[C@@H](CC(C)C)C(=O)N[C@@H](Cc1ccccc1)C(=O)O
pIC50 (HLA class I histocompatibility antigen, A alpha chain; cell-free assay): 6.44

COc1ccc(C[C@H](NC(=O)[C@H](C)NC(=O)OC(C)(C)C)C(=O)N[C@@H](CC(C)C)C(=O)C(=O)Nc2ccccc2)cc1
pIC50 (Proteasome component C5/PSMB5 chymotrypsin-like site; enzyme activity in cells, inhibitor): 5.74

CC(C)C[C@H](NC(=O)[C@H]1O[C@@H]1C(=O)O)C(=O)NCCCCN=C(N)N
pIC50 (CTSC (Homo sapiens, UniProt P53634); enzyme activity, inhibitor): 6.34

CSCC[C@H](NC(=O)[C@@H]1CCCN1C(=O)[C@@H](NC(=O)[C@@H]1CCCN1C(=O)[C@@H](N)C(C)C)C(C)C)C(=O)O
pIC50 (DPP4 (Homo sapiens, UniProt P27487); enzyme activity, inhibitor, absorbance; pH 8): 4.00

COc1ccc(C[C@H](NC(=O)[C@H](C)NC(=O)c2ccc(-c3ccccc3)cc2)C(=O)N[C@@H](CC(C)C)C(=O)C(=O)Nc2ccccc2)cc1
pIC50 (Proteasome component C5/PSMB5 chymotrypsin-like site; enzyme activity in cells, inhibitor): 6.90

O=c1c2ccc(Cl)cc2[nH]c(=S)n1Cc1cccnc1
pIC50 (4'-phosphopantetheinyl transferase PptT; enzyme activity, inhibitor, FP): 4.81

CCCCCC(=O)N(C)[C@H]1[C@H]([C@H](O)[C@H](O)CO)OC(C(=O)O)=C[C@@H]1O
pIC50 (NEU1; enzyme activity, inhibitor): 5.26

CSCC[C@H](NC(=O)[C@@H](N)Cc1c[nH]cn1)C(=O)N[C@@H](Cc1ccc(O)cc1)C(=O)N1CCC[C@H]1C(=O)N[C@@H](CC(N)=O)C(=O)N[C@@H](Cc1ccccc1)C(=O)N[C@H](C(=O)N[C@@H](CCC(N)=O)C(=O)N[C@@H](Cc1ccccc1)C(=O)O)C(C)C
pIC50 (HLA class I histocompatibility antigen, A alpha chain; cell-free assay): 6.15

CC(C)CCC(=O)N[C@H]1[C@H]([C@H](O)[C@H](O)CO)OC(C(=O)O)=C[C@@H]1O
pIC50 (NEU1; enzyme activity, inhibitor): 6.15

COc1ccc(C[C@H](NC(=O)[C@H](C)NC(=O)C23CC4CC(CC(C4)C2)C3)C(=O)N[C@@H](CC(C)C)C(=O)C(=O)Nc2ccccc2)cc1
pIC50 (Proteasome component C5/PSMB5 chymotrypsin-like site; enzyme activity in cells, inhibitor): 5.84

CC[C@H](C)[C@H](NC(=O)[C@@H](N)CCCCN)C(=O)N[C@@H](Cc1ccccc1)C(=O)N1CCC[C@H]1C(=O)N[C@H](C(=O)N1CCC[C@H]1C(=O)N[C@@H](CC(C)C)C(=O)N[C@@H](CCCCN)C(=O)N[C@@H](Cc1ccccc1)C(=O)O)C(C)C
pIC50 (HLA class I histocompatibility antigen, A alpha chain; cell-free assay): 6.66

CC(C)C[C@H](NC(=O)[C@@H](NC(=O)N[C@@H](Cc1ccccc1)C(=O)O)[C@@H]1CCN=C(N)N1)C(=O)N[C@H](C=O)Cc1ccccc1
pIC50 (Cathepsin G (CTSG, Homo sapiens, UniProt P08311); enzyme activity, inhibitor): 5.37

CSCC[C@H](NC(=O)[C@@H](N)CCCCN)C(=O)N[C@@H](Cc1ccc(O)cc1)C(=O)N1CCC[C@H]1C(=O)N[C@H](C(=O)NCC(=O)N[C@@H](Cc1ccccc1)C(=O)N[C@H](C(=O)N[C@@H](Cc1ccc(O)cc1)C(=O)O)[C@@H](C)O)[C@@H](C)O
pIC50 (HLA class I histocompatibility antigen, A alpha chain; cell-free assay): 7.77

Cc1nn(C)cc1-c1nc2c(N3CCN(Cc4ccc(Cl)cc4)CC3)c(Cl)cnc2[nH]1
remaining binding (Tyrosine-protein kinase JAK1, JH2 (JAK1, Homo sapiens, UniProt P23458); binding, competition with immobilised ligand; 1 µM): 100%

CSCC[C@H](NC(=O)[C@H](CCC(N)=O)NC(=O)[C@@H](N)CCCCN)C(=O)NCC(=O)N[C@@H](Cc1c[nH]cn1)C(=O)N[C@@H](CC(C)C)C(=O)N[C@@H](CC(C)C)C(=O)N[C@H](C(=O)N[C@@H](Cc1ccccc1)C(=O)O)[C@@H](C)O
pIC50 (HLA class I histocompatibility antigen, A alpha chain; cell-free assay): 5.98

CCC(C(=O)Nc1cc(NC2CCNCC2)ccc1C)n1cc(Cl)cc2nc(SCc3ccc(F)cc3)nc1-2 (stereo not shown)
pIC50 (CASP3; enzyme activity, inhibitor): < 4.00

A few entries again:
Nc1ncc(-c2nc(N3CCOCC3)nc(N3CCOCC3)n2)c(C(F)F)n1
remaining binding (CDPK1 (Plasmodium falciparum, UniProt P62344); binding, competition with immobilised ligand; 10 µM): 57%

COc1ncccc1-c1cnn2ccc(N3CCN(C(=O)OC(C)C)CC3)nc12
remaining binding (ACVR2A (Homo sapiens, UniProt P27037); binding, competition with immobilised ligand; 1 µM): 87%

CSCC[C@H](NC(=O)[C@@H](N)CCCCN)C(=O)N[C@@H](Cc1ccc(O)cc1)C(=O)N1CCC[C@H]1C(=O)N[C@H](C(=O)NCC(=O)N[C@@H](Cc1ccccc1)C(=O)N[C@H](C(=O)N[C@@H](Cc1ccc(O)cc1)C(=O)O)[C@@H](C)O)[C@@H](C)O
pIC50 (HLA class I histocompatibility antigen, A alpha chain; cell-free assay): 7.77
